Measurements of several laboratories.
Numbered parts are unrelated; each lists some results of a single study. Several values in a cell are separate wells, animals, samples, runs or records.
Sequence of UniProt Q59H18 (whole entry, looked up): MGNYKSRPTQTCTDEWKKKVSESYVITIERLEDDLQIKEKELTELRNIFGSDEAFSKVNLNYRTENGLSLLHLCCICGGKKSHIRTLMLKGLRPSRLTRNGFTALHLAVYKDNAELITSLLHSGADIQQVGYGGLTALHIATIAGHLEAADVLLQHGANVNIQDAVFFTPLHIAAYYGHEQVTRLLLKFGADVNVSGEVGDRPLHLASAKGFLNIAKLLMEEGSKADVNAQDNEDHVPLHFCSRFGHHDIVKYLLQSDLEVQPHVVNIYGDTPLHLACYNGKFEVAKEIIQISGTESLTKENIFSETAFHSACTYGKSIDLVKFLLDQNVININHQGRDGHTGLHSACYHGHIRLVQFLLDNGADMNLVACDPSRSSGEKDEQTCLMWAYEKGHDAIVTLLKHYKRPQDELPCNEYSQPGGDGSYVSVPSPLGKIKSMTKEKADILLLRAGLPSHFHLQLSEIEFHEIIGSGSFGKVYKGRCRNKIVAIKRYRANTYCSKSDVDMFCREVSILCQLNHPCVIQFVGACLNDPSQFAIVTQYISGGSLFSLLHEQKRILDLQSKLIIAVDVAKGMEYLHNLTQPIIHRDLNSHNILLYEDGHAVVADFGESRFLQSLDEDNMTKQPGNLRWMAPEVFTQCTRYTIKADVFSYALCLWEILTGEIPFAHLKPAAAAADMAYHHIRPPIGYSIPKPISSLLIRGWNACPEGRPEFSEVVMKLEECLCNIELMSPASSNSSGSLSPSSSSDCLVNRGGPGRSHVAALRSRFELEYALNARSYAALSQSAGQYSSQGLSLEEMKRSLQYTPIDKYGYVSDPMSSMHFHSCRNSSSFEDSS
Sequence of UniProt P45983 (whole entry, looked up): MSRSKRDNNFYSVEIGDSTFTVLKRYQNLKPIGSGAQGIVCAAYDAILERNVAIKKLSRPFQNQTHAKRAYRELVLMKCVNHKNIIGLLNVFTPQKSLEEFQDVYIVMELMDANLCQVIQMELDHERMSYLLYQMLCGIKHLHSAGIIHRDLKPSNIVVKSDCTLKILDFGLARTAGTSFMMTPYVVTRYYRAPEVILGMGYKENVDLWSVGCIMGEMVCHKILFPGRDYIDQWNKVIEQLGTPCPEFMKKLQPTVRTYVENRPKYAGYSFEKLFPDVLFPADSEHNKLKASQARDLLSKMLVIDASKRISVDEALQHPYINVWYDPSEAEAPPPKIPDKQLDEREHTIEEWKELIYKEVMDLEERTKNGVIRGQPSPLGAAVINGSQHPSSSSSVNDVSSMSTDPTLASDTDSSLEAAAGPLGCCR
Sequence of UniProt O60331 (whole entry, looked up): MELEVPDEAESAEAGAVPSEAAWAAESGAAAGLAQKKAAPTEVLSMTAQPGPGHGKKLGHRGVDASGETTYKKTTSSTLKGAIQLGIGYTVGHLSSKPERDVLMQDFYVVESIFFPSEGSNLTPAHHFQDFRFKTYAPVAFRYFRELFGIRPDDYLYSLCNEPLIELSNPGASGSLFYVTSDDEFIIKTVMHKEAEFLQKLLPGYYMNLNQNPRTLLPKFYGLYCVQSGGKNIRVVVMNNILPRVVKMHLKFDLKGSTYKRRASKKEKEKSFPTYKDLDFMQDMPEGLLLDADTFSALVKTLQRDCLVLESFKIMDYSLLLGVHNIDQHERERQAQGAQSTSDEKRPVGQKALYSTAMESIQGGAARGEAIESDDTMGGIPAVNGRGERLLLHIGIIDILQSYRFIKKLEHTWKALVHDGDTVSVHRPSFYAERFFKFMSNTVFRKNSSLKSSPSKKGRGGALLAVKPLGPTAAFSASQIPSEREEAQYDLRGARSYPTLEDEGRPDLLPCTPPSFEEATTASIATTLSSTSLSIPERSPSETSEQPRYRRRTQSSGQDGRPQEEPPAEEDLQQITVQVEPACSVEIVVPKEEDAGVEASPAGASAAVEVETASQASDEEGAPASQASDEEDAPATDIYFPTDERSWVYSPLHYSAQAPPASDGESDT
Sequence of UniProt Q96SB4 (whole entry, looked up): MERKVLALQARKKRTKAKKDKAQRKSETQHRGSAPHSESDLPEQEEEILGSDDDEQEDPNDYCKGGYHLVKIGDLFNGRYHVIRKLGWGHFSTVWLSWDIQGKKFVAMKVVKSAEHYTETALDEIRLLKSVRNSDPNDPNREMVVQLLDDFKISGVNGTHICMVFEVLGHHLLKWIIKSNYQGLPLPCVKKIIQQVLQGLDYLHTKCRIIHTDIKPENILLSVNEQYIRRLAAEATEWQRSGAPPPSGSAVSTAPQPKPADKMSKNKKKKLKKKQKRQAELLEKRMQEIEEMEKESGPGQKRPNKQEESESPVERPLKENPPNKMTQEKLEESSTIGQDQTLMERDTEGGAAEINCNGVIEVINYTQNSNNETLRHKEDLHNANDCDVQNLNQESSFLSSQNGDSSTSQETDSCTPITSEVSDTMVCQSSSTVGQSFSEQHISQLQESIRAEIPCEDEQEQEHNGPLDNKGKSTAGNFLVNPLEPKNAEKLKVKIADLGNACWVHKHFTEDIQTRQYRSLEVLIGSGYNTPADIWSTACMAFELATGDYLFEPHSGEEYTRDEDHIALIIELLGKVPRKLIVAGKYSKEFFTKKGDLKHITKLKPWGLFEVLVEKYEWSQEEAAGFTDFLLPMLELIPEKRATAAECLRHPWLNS
Sequence of UniProt P50613 (whole entry, looked up): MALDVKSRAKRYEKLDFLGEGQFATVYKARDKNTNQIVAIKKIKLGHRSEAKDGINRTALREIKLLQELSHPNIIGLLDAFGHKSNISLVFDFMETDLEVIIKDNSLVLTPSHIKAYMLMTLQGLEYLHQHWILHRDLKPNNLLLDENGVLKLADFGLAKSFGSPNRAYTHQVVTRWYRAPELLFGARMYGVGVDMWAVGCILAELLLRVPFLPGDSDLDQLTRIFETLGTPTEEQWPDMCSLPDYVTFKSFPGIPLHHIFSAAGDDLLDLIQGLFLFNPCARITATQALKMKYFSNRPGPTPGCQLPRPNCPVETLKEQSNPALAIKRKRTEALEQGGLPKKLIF
Sequence of UniProt Q04912 (whole entry, looked up): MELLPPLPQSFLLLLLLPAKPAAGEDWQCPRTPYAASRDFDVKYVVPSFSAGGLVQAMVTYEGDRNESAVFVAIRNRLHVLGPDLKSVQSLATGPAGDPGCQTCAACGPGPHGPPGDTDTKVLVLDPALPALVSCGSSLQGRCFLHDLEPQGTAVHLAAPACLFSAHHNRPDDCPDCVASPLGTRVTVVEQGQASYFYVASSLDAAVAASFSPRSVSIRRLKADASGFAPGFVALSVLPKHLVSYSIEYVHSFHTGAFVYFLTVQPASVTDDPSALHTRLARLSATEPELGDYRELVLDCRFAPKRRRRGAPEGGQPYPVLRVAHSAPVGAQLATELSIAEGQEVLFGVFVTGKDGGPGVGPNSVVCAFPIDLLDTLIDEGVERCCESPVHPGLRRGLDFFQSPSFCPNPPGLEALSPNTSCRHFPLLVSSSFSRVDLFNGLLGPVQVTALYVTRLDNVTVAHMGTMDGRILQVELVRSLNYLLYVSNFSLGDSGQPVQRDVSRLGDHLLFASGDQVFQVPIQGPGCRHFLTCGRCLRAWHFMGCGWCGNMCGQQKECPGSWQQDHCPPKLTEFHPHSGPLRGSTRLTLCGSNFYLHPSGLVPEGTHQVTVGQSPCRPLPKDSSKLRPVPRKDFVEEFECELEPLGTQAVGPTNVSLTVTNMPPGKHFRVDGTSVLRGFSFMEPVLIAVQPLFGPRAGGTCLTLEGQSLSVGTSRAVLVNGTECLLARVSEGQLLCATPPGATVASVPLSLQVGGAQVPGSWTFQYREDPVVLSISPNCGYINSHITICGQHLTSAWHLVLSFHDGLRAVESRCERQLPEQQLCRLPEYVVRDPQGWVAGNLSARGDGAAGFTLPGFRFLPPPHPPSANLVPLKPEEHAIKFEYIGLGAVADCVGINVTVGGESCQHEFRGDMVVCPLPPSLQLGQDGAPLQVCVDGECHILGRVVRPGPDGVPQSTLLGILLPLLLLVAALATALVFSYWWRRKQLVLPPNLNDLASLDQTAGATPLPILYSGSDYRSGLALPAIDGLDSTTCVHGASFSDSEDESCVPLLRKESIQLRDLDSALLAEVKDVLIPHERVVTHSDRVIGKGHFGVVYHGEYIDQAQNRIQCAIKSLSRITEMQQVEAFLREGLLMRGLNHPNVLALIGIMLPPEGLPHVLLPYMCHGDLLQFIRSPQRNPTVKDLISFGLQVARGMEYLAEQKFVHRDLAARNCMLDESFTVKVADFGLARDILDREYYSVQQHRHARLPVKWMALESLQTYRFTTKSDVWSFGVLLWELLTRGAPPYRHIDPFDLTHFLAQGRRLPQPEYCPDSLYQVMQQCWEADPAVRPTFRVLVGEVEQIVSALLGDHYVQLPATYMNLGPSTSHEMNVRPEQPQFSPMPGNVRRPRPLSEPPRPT
Sequence of UniProt P52564 (whole entry, looked up): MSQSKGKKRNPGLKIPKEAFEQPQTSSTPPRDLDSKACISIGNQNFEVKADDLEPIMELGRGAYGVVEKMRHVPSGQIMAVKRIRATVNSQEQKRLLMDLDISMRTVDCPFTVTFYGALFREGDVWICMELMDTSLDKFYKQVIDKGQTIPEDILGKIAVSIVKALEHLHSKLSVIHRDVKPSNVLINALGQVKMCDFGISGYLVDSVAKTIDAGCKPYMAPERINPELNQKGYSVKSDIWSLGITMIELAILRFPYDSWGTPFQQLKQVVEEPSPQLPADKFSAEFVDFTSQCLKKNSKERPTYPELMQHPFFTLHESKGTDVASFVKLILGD

Study 1
SMILES: Cc1cc(C)c(-n2ccn3nc(-c4cccnc4)cc23)cc1NC(=O)c1cc(C#N)cc(S(F)(F)(F)(F)F)c1
Method: competition with immobilised ligand
Tested at: 0.1 µM
It gave 44.5% for remaining binding (Mast/stem cell growth factor receptor Kit (KIT, Homo sapiens, UniProt P10721); cell-free assay).
Cyclin-dependent kinase-like 1 (CDKL1, Homo sapiens, UniProt Q00532); binding — remaining binding: 77.4%.
The remaining binding was 83.3% (Activin receptor type-1 (ACVR1, Homo sapiens, UniProt Q04771); cell-free assay).
It gave 85.8% for remaining binding (Serine/threonine-protein kinase TNNI3K (TNNI3K, Homo sapiens, UniProt Q59H18); cell-free assay).
It gave 82.7% for remaining binding (Phosphatidylinositol 4,5-bisphosphate 3-kinase catalytic subunit alpha isoform (PIK3CA, Homo sapiens, UniProt P42336, H1047L); cell-free assay).
For Phosphatidylinositol 3-kinase C2 domain-containing subunit gamma (PIK3C2G, Homo sapiens, UniProt O75747); cell-free assay: remaining binding read 60.7%.
It gave 70.1% for remaining binding (Cyclin-dependent kinase 7 (CDK7, Homo sapiens, UniProt P50613); cell-free assay).
For Activin receptor type-1B (ACVR1B, Homo sapiens, UniProt P36896); cell-free assay: remaining binding read 100%.
The remaining binding was 85.4% (Serine/threonine-protein kinase 3 (STK3, Homo sapiens, UniProt Q13188); cell-free assay).
Phosphatidylinositol 4-phosphate 5-kinase type-1 gamma (PIP5K1C, Homo sapiens, UniProt O60331); cell-free assay — remaining binding: 70.2%.
For Serine/threonine-protein kinase Sgk3 (SGK3, Homo sapiens, UniProt Q96BR1); cell-free assay: remaining binding read 81.5%.
It gave 98.9% for remaining binding (Serine/threonine-protein kinase NIM1 (NIM1K, Homo sapiens, UniProt Q8IY84); cell-free assay).
For Epidermal growth factor receptor (EGFR, Homo sapiens, UniProt P00533, del747-752/P753S); cell-free assay: remaining binding read 88.5%.
Macrophage-stimulating protein receptor (MST1R, Homo sapiens, UniProt Q04912); cell-free assay — remaining binding: 75.6%.
The remaining binding was 67.4% (SRSF protein kinase 1 (SRPK1, Homo sapiens, UniProt Q96SB4); cell-free assay).
Serine/threonine-protein kinase pim-2 (PIM2, Homo sapiens, UniProt Q9P1W9); cell-free assay — remaining binding: 100%.
For Mitogen-activated protein kinase 7 (MAPK7, Homo sapiens, UniProt Q13164); cell-free assay: remaining binding read 100%.
The remaining binding was 100% (Dual specificity mitogen-activated protein kinase kinase 6 (MAP2K6, Homo sapiens, UniProt P52564); cell-free assay).
Mitogen-activated protein kinase 14 (MAPK14, Homo sapiens, UniProt Q16539); cell-free assay — remaining binding: 0%.
Serine/threonine-protein kinase DCLK2 (DCLK2, Homo sapiens, UniProt Q8N568); cell-free assay — remaining binding: 90.6%.
The remaining binding was 76.8% (Mitogen-activated protein kinase 8 (MAPK8, Homo sapiens, UniProt P45983); cell-free assay).
For Serine/threonine-protein kinase BRSK2 (BRSK2, Homo sapiens, UniProt Q8IWQ3); cell-free assay: remaining binding read 97.5%.
It gave 100% for remaining binding (Receptor-type tyrosine-protein kinase FLT3 (FLT3, Homo sapiens, UniProt P36888, ITD); cell-free assay).
The remaining binding was 84.9% (Phosphatidylinositol 3-kinase catalytic subunit type 3 (PIK3C3, Homo sapiens, UniProt Q8NEB9); cell-free assay).

Study 2
Species: human
Sample: microsomes or S9
Tested at: 2 µM
Time: 0.5 h
`O[C@@H]1C[C@@H](c2nnc3n2CCN(Cc2cccc4[nH]ccc24)C3)N(Cc2ccccc2)C1` gave a remaining compound of 21.1%.
With `CC(=O)c1c[nH]c(C(=O)Nc2cc(C(F)(F)F)ccc2O)c1` the remaining compound was 1.12%.
For `CC(C)S(=O)(=O)c1ccccc1C(=O)N1CC(C)(C)c2c(Cl)cccc21`, the remaining compound was 32.1%.
For `CCN1C(=O)C(C)(C)c2cc(S(=O)(=O)Nc3cnn(CC)c3)ccc21`, the remaining compound was 54.8%.

Study 3
Organism: Plasmodium berghei
Action: inhibitor
Cells: Huh-7
Strain: liver stage
Tested at: 10 µM
Time: 24 h
Baseline: untreated control
For `CC[C@H](C)C(=O)O[C@H]1C[C@@H](C)C=C2C=C[C@H](C)[C@H](CC[C@@H]3C[C@@H](O)CC(=O)O3)[C@H]21`, the infection rate was 83.4%.
`COc1c2occc2cc2ccc(=O)oc12` has an infection rate of 94%.
The infection rate of `COc1ccc2cc([C@H](C)CO)ccc2c1` is reported as 86.7%.
With `CO[C@@]1(NC(=O)C(C(=O)O)c2ccc(O)cc2)C(=O)N2C(C(=O)O)=C(CSc3nnnn3C)CO[C@@H]21` (stereo partly drawn) the infection rate was 122%.

Study 4
Cell line: mouse MPNST tumor cells
Method: high-content nuclear imaging
Refers to: cell number
Tested at: 10 µM
Time: 12 h
Notes: mean of 2 replicates
Baseline: plate mean
Direction: higher = more cells
The nuclei count of `Cc1onc(-c2c(Cl)cccc2Cl)c1C(=O)N[C@@H]1C(=O)N2[C@@H]1SC(C)(C)[C@@H]2C(=O)O` is reported as -0.0561 z-score.
`CNc1cc2[nH]c(=O)n(-c3ccc(NC(=O)NS(=O)(=O)c4ccc(Cl)s4)cc3)c(=O)c2cc1F` gave a nuclei count of 2.58 z-score.
`COc1ccccc1N1CCN(CC(O)COc2cccc3ccccc23)CC1` (stereo not drawn) gave a nuclei count of 0.956 z-score and 2.7 z-score.

Study 5
Cell line: HaCaT
Tested at: 100 µM
Time: 18 h
The viability of `CO[C@H]1C[C@@H]2CC[C@@H](C)[C@@](O)(O2)C(=O)C(=O)N2CCCC[C@H]2C(=O)O[C@H]([C@H](C)C[C@@H]2CC[C@@H](O)[C@H](OC)C2)CC(=O)[C@H](C)/C=C(\C)[C@@H](O)[C@@H](OC)C(=O)[C@H](C)C[C@H](C)/C=C/C=C/C=C/1C` is reported as 44.3%.
For `CCC[C@H](NC(=O)[C@@H]1[C@H]2CCC[C@H]2CN1C(=O)[C@@H](NC(=O)[C@@H](NC(=O)c1cnccn1)C1CCCCC1)C(C)(C)C)C(=O)C(=O)NC1CC1`, the viability was 58.6%.
The viability of `O=C(O)c1cccnc1` is reported as 111%.
`O=C1Nc2ccc(Cl)cc2[C@@](C#CC2CC2)(C(F)(F)F)O1` gave a viability of 16.3%.

Study 6
SMILES: O=C1CCC(N2Cc3cc(C4CCN(Cc5ccccc5)CC4)ccc3C2=O)C(=O)N1 (stereo not drawn)
Sample: plasma
It gave 539 ng·h/mL for AUC(0-inf) (mouse, ICR, male; oral, 3.0 mg/kg).
male Sprague Dawley rats; intravenous, 1.0 mg/kg — AUC(0-inf): 335 ng·h/mL.
The AUC(0-inf) was 606 ng·h/mL and 665 ng·h/mL (male ICR mice; oral, 3.0 mg/kg).
For male Sprague Dawley rats; oral, 3.0 mg/kg: AUC(0-inf) read 396 ng·h/mL.

Further values, each from its own experiment
FHL1 DNA-binding domain: Pre-rRNA-processing protein FHL1, DNA-binding domain (FHL1, Saccharomyces cerevisiae, UniProt P39521, residues 401-638)
Sequence of UniProt P39521 (401-638, looked up): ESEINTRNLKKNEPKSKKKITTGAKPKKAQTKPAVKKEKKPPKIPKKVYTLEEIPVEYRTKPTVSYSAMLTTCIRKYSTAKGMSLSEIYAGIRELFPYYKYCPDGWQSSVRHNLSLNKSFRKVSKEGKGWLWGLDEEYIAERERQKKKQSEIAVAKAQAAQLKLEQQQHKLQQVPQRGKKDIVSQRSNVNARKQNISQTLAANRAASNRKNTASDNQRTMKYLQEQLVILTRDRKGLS
`CGCGCA`: “relative binding free energy” 0.271 ddG/RT (FHL1 DNA-binding domain; SELEX-seq; double-stranded DNA, one strand shown, in vitro; not given, 6-bp core, flanks averaged; baseline: best-binding core, lower = stronger binding).
`COc1cc(C(=O)N2CCC(N3CCN(C)CC3)CC2)ccc1Nc1ncc2c(n1)N(C)c1ccccc1C(=O)N2C` has a remaining signal of 0% (Leucine-rich repeat serine/threonine-protein kinase 2 (LRRK2, Homo sapiens, UniProt Q5S007); cell-free assay; 10 µM).
`CC(C)n1cnc(-c2ccc(F)cc2)c1-c1ncc(C(=O)Nc2ccc(N3CCN(C)CC3)cc2)[nH]1` gave a Gastritis incidence of 0% (IPF patients; 60 mg once daily, adverse event).
`GTCGCA`: “relative binding free energy” 0.294 ddG/RT (FHL1 DNA-binding domain; SELEX-seq; double-stranded DNA, one strand shown, in vitro; not given, 6-bp core, flanks averaged; baseline: best-binding core, lower = stronger binding).
`Oc1ccc(-c2nc(-c3ccncc3)c(-c3ccc(F)cc3)[nH]2)cc1` gave a ΔTm of 0.09 °C (Protein polybromo-1, BD2 (PBRM1, Homo sapiens, UniProt Q86U86); thermal stability, DSF; 10 µM).

Some of these lines once more (study 1):
Cyclin-dependent kinase-like 1 (CDKL1, Homo sapiens, UniProt Q00532); binding — remaining binding: 77.4%.
Mitogen-activated protein kinase 14 (MAPK14, Homo sapiens, UniProt Q16539); cell-free assay — remaining binding: 0%.
It gave 100% for remaining binding (Receptor-type tyrosine-protein kinase FLT3 (FLT3, Homo sapiens, UniProt P36888, ITD); cell-free assay).
For Activin receptor type-1B (ACVR1B, Homo sapiens, UniProt P36896); cell-free assay: remaining binding read 100%.
Macrophage-stimulating protein receptor (MST1R, Homo sapiens, UniProt Q04912); cell-free assay — remaining binding: 75.6%.
Serine/threonine-protein kinase DCLK2 (DCLK2, Homo sapiens, UniProt Q8N568); cell-free assay — remaining binding: 90.6%.
Serine/threonine-protein kinase pim-2 (PIM2, Homo sapiens, UniProt Q9P1W9); cell-free assay — remaining binding: 100%.
